Assay results pooled from the literature.
“And” joins repeats or separate records; there may be more than shown. Numbers after ± are the reported error.
Target: Voltage-gated inwardly rectifying potassium channel KCNH2 (KCNH2, Homo sapiens, UniProt Q12809)
Chain of UniProt Q12809 (whole entry, looked up): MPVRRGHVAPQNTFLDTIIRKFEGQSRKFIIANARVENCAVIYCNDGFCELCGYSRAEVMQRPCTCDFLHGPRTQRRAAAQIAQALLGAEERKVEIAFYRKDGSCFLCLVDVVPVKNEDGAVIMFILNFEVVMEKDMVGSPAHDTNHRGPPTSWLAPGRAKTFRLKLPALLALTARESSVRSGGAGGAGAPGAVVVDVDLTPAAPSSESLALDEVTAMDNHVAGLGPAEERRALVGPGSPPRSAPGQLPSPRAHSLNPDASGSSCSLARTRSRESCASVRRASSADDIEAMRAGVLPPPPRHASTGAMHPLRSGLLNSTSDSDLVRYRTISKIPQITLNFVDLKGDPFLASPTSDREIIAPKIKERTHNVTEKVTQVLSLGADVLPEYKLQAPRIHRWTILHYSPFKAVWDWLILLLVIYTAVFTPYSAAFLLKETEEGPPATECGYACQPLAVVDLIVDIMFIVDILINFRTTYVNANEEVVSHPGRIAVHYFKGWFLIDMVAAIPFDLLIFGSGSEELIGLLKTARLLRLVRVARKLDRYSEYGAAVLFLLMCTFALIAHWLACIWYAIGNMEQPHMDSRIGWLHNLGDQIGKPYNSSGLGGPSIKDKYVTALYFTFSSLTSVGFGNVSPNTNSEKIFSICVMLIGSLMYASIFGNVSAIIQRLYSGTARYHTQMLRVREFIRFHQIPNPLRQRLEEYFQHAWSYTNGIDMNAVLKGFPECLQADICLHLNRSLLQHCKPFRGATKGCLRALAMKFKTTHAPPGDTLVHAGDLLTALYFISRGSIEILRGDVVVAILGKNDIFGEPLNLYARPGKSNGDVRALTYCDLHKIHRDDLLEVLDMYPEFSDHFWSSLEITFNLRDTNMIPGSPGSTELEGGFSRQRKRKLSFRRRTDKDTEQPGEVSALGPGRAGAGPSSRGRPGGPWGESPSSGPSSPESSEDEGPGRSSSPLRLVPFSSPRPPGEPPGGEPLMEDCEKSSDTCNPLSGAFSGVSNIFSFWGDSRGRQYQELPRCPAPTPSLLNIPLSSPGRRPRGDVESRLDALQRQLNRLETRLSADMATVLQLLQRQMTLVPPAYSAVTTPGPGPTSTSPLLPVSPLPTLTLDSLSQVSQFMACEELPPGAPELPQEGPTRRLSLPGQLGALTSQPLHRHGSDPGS

For C[C@H]1C[C@@H](N2C(=N)N[C@](C)(c3cccc(NC(=O)c4cccc(C#N)c4)c3Cl)CC2=O)CCO1, the IC50 was 32.5 µM (potassium current, inhibitor; pH 7.4).
COc1ccn2c(Nc3ccccc3F)c(-c3ccncn3)nc2c1 has an IC50 of > 101 µM (ion current, blocker).
COc1ccc2c(c1)CN(C(=O)CCN1CCC(Cc3ccccc3)CC1)CC[S@@+]2[O-] has an IC50 of 0.43 µM (IKr current, inhibitor).
With COc1ccc2cc3[n+](cc2c1OC)CCc1cc2c(cc1-3)OCO2 the IC50 was 5.58 ± 1.41 µM (1 h, pH 7.4).
CC1(F)CN(C(=O)Cn2c(=O)c(C(=O)NCc3ccc(Cl)cc3)cc3nc(N4CCNC4=O)cnc32)C1 gave an IC50 of 38 µM and > 30 µM (ion current, automated patch clamp; CHO expressing hERG).
The IC50 of COc1ccc(Cc2nc(NC(=O)C34CC5CC(CC(C5)C3)C4)n(C)c2Cc2ccc(OC)c(OC)c2)cc1 is reported as 22.9 µM.
The IC50 of CC1(F)CN(C(=O)Cn2c(=O)c(C(=O)NCc3ccc(Cl)cc3)cc3nccnc32)C1 is reported as 5.9 µM (potassium current, inhibitor, automated patch clamp; CHO cells expressing hERG).
Cc1ccc2c(c1)nc(/C=C/c1cccc3cccnc13)n2-c1cccc(OCCCN2CCN(C)CC2)c1 has an IC50 of 4.52 µM (tail current).
COc1cccc(CCc2cc(O)c(=O)[nH]n2)c1 has an IC50 of > 10 µM.
The IC50 of COc1ccc2c(Cc3ccccc3F)c3[n+](cc2c1OC)CCc1cc2c(cc1-3)OCO2 is reported as 1.57 ± 0.55 µM (1 h, pH 7.4).
O=c1c2c([nH]c3cc(Oc4ccc(OC(F)(F)F)cc4)c(F)cc13)CCCC2 has an IC50 of > 100 µM (ion current, inhibitor).
